Measurements collected from several papers.
Protocols differ between the studies behind these lines. Numbers after ± are the reported error.
Target: ATP-dependent translocase ABCB1 (ABCB1, Homo sapiens, UniProt P08183)
UniProt P08183, sequence (whole entry, looked up): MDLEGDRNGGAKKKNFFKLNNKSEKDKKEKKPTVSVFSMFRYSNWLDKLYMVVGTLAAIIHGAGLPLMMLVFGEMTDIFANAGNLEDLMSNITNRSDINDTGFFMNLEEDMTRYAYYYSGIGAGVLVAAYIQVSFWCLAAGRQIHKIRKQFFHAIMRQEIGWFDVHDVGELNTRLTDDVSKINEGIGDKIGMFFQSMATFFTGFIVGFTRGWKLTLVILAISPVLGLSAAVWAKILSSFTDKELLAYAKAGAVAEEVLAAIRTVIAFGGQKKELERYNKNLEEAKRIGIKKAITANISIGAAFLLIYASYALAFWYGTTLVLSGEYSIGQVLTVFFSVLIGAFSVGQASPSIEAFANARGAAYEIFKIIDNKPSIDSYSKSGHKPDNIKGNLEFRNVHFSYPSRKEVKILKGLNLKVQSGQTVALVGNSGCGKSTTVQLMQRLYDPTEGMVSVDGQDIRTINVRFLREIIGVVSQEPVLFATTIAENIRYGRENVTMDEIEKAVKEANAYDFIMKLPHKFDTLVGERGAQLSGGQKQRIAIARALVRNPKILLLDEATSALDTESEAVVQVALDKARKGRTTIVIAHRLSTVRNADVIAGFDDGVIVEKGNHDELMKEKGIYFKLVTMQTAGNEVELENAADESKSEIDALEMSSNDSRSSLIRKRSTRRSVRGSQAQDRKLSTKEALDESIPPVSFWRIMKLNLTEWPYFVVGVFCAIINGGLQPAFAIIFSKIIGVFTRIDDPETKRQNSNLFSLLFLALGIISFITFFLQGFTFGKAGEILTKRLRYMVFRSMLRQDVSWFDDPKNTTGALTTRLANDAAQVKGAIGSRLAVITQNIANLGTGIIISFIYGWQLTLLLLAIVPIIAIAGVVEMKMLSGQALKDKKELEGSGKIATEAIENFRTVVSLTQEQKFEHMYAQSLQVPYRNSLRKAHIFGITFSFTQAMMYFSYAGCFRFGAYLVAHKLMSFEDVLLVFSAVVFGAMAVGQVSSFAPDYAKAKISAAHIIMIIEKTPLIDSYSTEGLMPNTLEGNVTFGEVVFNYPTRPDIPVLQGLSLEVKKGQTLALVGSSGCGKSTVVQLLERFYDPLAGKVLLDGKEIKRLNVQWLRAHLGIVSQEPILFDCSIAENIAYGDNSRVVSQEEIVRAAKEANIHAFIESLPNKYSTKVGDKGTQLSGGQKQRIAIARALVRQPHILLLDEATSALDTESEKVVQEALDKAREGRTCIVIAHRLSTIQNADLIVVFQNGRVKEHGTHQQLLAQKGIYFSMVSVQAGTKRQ

Compound	assay	test system	setting	scale	endpoint	result
CC(C)(O)Cn1nc(-c2ccccc2)c2c(Cl)c(-c3ccccc3)nnc21		MDCK-MDR1 and wild-type MDCK	10 µM, 1 h, pH 7.4		effective efflux ratio	1
Cc1cc(C(=O)N[C@@H](CC(=O)NC(C)(C)C)C(=O)NCCNC(=O)c2cc(-c3ccccc3)ccn2)no1		ABCB1-expressing cell monolayer	10 µM, apical to basolateral		apparent permeability	0.5 ×10⁻⁶ cm/s
CNc1nc(N)nc2c1ncn2[C@@H]1O[C@H](CO)[C@@H](O)[C@@]1(C)F	bidirectional transport	LLC-PK1, human MDR1, transfected with	10 µM, added: zosuquidar 1 µM		Papp B to A	17.7 ± 1.9 ×10⁻⁶ cm/s
C/C(N)=N/C(=N\S(=O)(=O)c1ccc(C(F)(F)F)cc1)N1C[C@H](c2ccccc2)C(c2ccc(Cl)cc2)=N1		MDCK-MDR1 monolayers	5 µM, 120 min, pH 7.4, added: valspodar 1 µM		Papp B-A	5.4 ×10⁻⁶ cm/s
Cc1cc(C(=O)N[C@@H](CC(=O)NC(C)(C)C)C(=O)NCCNC(=O)c2cccc(-c3cc[nH]n3)c2)no1		ABCB1-expressing cell monolayer	10 µM, apical to basolateral		apparent permeability	0 ×10⁻⁶ cm/s
CNc1nc(N)nc2c1ncn2[C@@H]1O[C@H](CO[P@](=O)(O)N[C@@H](C)C(=O)O)[C@@H](O)[C@@]1(C)F	bidirectional transport	LLC-PK1, human MDR1, transfected with	10 µM		Papp B to A	5.68 ± 0.22 ×10⁻⁶ cm/s
N[C@H]1[C@H](O[C@H]2[C@H](O)[C@@H](N)[C@H](O[C@H]3[C@H](O)[C@@H](N)[C@H](O[C@H]4[C@H](O)[C@@H](N)C(O)O[C@@H]4CO)O[C@@H]3CO)O[C@@H]2CO)O[C@H](CO)[C@@H](O)[C@@H]1O (some centres unmarked)	surface plasmon resonance				Kd	1290 µM
C=CC(=O)N1CC2C(=O)N(CCN(C)C)c3c(c4cc(Cl)c(-c5c(O)cccc5F)nc4n(-c4c(C)ccnc4C(C)C)c3=O)N2CC1C (centres unmarked)		MDCK-MDR1		relative to: B-A over A-B	efflux ratio	3.5

A few entries again:
Compound	assay	test system	setting	scale	endpoint	result
CNc1nc(N)nc2c1ncn2[C@@H]1O[C@H](CO[P@](=O)(O)N[C@@H](C)C(=O)O)[C@@H](O)[C@@]1(C)F	bidirectional transport	LLC-PK1, human MDR1, transfected with	10 µM		Papp B to A	5.68 ± 0.22 ×10⁻⁶ cm/s
